Published values of several laboratories.
Several values in a cell are separate wells, animals, samples, runs or records. ± marks the error that the study gave.
UCHL1: Ubiquitin carboxyl-terminal hydrolase isozyme L1 (UCHL1, Homo sapiens, UniProt P09936)
Voltage-dependent P/Q-type calcium channel subunit alpha-1A: Voltage-dependent P/Q-type calcium channel subunit alpha-1A (Homo sapiens, UniProt O00555)
ADRA2C: Alpha-2C adrenergic receptor (ADRA2C, Homo sapiens, UniProt P18825)
T1: G-quadruplex DNA (Homo sapiens); AGGGTGGGGAGGGTGGGGA

C#CCOc1ccccc1C=NNC(=O)c1ccc(OC)cc1  labelling (UCHL1; covalent, intact protein LC-MS; 12.5 µM): 2.9%
O=C(O)CC(CNS(=O)(=O)c1cccc(Cl)c1O)c1ccc(Br)s1 (centres unmarked)  remaining activity (malate dehydrogenase; enzyme activity, inhibitor; 200 µM, pH 7.0, 1% DMSO, aggregation counter-screen): 79%
Nc1nc(SCc2ccc(Cl)cc2)nn1S(=O)(=O)c1ccc(Br)cc1  probe labeling increase (LYPLAL1 (Homo sapiens, UniProt Q5VWZ2); enzyme activity, activator, gel-based ABPP; purified protein; concentration not given, together with: FP-rhodamine; relative to: DMSO): 2.3 fold
O=c1nc(SCc2cc(F)cc(C(F)(F)F)c2)nc(SCc2ccc3sccc3c2)[nH]1  mean decatenated DNA (TOP2B (Homo sapiens, UniProt Q02880); decatenation; 31.25 µM): 0%
N[C@@H](Cc1ccccc1)C(=O)O  melting temperature (Phospho-2-dehydro-3-deoxyheptonate aldolase 2, chloroplastic (DHS2, Arabidopsis thaliana, UniProt Q00218); differential scanning fluorimetry; together with: AAA 1 mM): no effect
Cc1ccc2ccccc2c1NS(=O)(=O)c1cccc(Cl)c1O  remaining activity (malate dehydrogenase; enzyme activity, inhibitor; 200 µM, pH 7.0, 1% DMSO, aggregation counter-screen): 107%
C#CCCC1(CC[C@H](NC(=O)NCCCCCCNC(=O)NCCNC(=O)COc2cccc([C@@H](CCc3ccc(OC)c(OC)c3)OC(=O)[C@@H]3CCCCN3C(=O)C(=O)C(C)(C)CC)c2)C(N)=O)N=N1.O=C(O)C(F)(F)F  normalized labeling ratio (FKBP1A (Homo sapiens, UniProt P62942); photoaffinity labeling, in-gel fluorescence, item: Alexa Fluor 647 click label; 0.08 µM, UV irradiation 365 nm; relative to: probe over FKBP12 signal, higher = more labeling): 0.576
N#Cc1ccc2[nH]cc(CCCCN3CCN(c4ccc5oc(C(N)=O)cc5c4)CC3)c2c1  Hill coefficient (SLC6A4 (Homo sapiens, UniProt P31645); serotonin uptake, inhibitor; COS-7 expressing SLC6A4; 0 min preincubation, together with: [3H]5-HT): 1.76 ± 0.19
Nc1ncnc2c1ncn2[C@@H]1O[C@H](COP(=O)(O)CP(=O)(O)OP(=O)(O)O)[C@@H](O)[C@H]1O  specific binding (P2X purinoceptor 1 (P2RX1, Homo sapiens, UniProt P51575, E282A); saturation binding; HEK293; 1 nM): 46.5 CCPM and 40.5 CCPM
Fc1ccc([C@@H]2CCNC[C@H]2COc2ccc3c(c2)OCO3)cc1  inhibition (Voltage-dependent P/Q-type calcium channel subunit alpha-1A; ion current, antagonist; HEK293; 3 µM): 73%
N=C(N)Nc1nc2ccccc2[nH]1  Hill coefficient (HVCN1 (Homo sapiens, UniProt Q96D96, F182W); proton current, inhibitor, inside-out patch clamp): 0.88 ± 0.03
CN[C@H]1CC[C@@H](c2ccc(Cl)c(Cl)c2)c2ccccc21  inhibition (Voltage-dependent P/Q-type calcium channel subunit alpha-1A; ion current, antagonist; HEK293; 3 µM): 72%
Cc1c(CC(=O)NCCc2cccc(F)c2)c(=O)oc2cc(O)cc(O)c12  luminescence (B4GALT1 (Homo sapiens, UniProt P15291); enzyme activity, inhibitor, UDP-Glo; 10 µM; lower means stronger inhibition): 28900 a.u.
N#CC(=Cc1cccc(F)c1)C(=O)Nc1ccc(SC(F)F)cc1  labelling (UCHL1; covalent, intact protein LC-MS; 12.5 µM): 18.1%
COC(=O)c1cn(C)c2ccc(-c3cccnc3)cc12  activation (THRA (Homo sapiens, UniProt P10827); reporter gene, Gal4 hybrid reporter; 10 µM; relative to: vehicle): 0.71 fold
Cc1[nH]nc(S(=O)(=O)NCc2ccc(Br)cc2C(F)(F)F)c1C(=O)O  remaining activity (malate dehydrogenase; enzyme activity, inhibitor; 200 µM, pH 7.0, 1% DMSO, aggregation counter-screen): 93%
CN(C(=O)n1cnc(-c2ccc[n+]([O-])c2)c1)C1CCCCC1  maximum inhibition (Faah (Rattus norvegicus, UniProt P97612); enzyme activity; rat, brain; 0.1 mg/kg, 8 h): 92%
O=C(COP(=O)(O)O)[C@@H](O)[C@H](O)[C@H](O)COP(=O)(O)O  thermal stability ratio (ADH5 (Homo sapiens, UniProt P11766); thermal proteome profiling; HepG2 cell lysate; concentration not given, 57 over 37 °C; relative to: compound over control): 0.444 and 0.49 and 0.795
CC(=O)N[C@H](C(=O)N1C[C@H](O)C[C@H]1C(=O)NCc1ccc(-c2scnc2C)cc1)C(C)(C)SCCCCCCNC(=O)C[C@@H]1N=C(c2ccc(Cl)cc2)c2c(sc(C)c2C)-n2c(C)nnc21  ΔG (Bromodomain-containing protein 4, BD1 (BRD4, Homo sapiens, UniProt O60885); binding, ITC; 25 °C, compound in cell, protein in syringe): -9.8 ± 0.2 kcal/mol
CO[C@@H]1O[C@@H](C)[C@@H](O)[C@@H](O)[C@@H]1O  ΔH (fleA (Aspergillus fumigatus, UniProt Q4WW81); ITC): -7.84 kcal/mol
NCCCCC(=O)O  fraction bound (SLC6A6 (Homo sapiens, UniProt P31641, Y138A); binding, microscale thermophoresis; 35.1 nM, fitted curve; higher = more binding): 0
CCCCn1/c(=C/C=C/C2=[N+](CCC[N+](C)(C)C)c3ccc(Br)cc3C2(C)C)c2cccc3cccc1c32  binding (T1, G-quadruplex DNA (Homo sapiens); absorption titration; K+ 50 mM): binds
CCN(CCO)CCCC(C)Nc1ccnc2cc(Cl)ccc12 (centres unmarked)  inactivation V1/2 (SCN5A (Homo sapiens, UniProt Q14524); sodium current; 30 µM): -86.2 ± 4.5 mV
O=C(O)c1ccc(O)cc1  current density (BEST1 (Homo sapiens, UniProt O76090); whole-cell patch clamp; HEK293 transiently expressing channel; concentration not given, membrane potential 0 mV): 0.08 pA/pF and 0.06 pA/pF and -0.08 pA/pF and -0.09 pA/pF and 0.07 pA/pF and 0.05 pA/pF and 0.02 pA/pF
Cc1ccc(SCCOCCN2CC(C)OC(C)C2)cc1.Cl (centres unmarked)  inhibition (Trypanosoma cruzi; reporter translation, Renilla luciferase mRNA translation; cell-free extract; 40 µM; relative to: DMSO): -1.6%
Nc1ncnc2c1ncn2[C@@H]1O[C@H](COP(=O)(O)OP(=O)(O)OP(=O)(O)O)[C@@H](O)[C@H]1O  normalized current (P2X purinoceptor 7 (P2rx7, Rattus norvegicus, UniProt Q64663, R125A); ion current, agonist, two-electrode voltage clamp; Xenopus laevis oocytes; 1500 µM; relative to: highest concentration response): 1
COc1cc(C=O)cc(Cl)c1OS(=O)(=O)c1ccccc1  labelling (UCHL1; covalent, intact protein LC-MS; 12.5 µM): 12.9%
CC(C)/N=c1\cc2n(-c3ccc(Cl)cc3)c3ccccc3nc-2cc1Nc1ccc(Cl)cc1  inhibition (Trypanosoma cruzi; reporter translation, Renilla luciferase mRNA translation; cell-free extract; 40 µM; relative to: DMSO): -5%
COc1cc(NC(=O)c2ccccn2)ccc1/N=N/c1ccccc1Cl  activation (Metabotropic glutamate receptor 6 (Homo sapiens, UniProt O15303); positive allosteric modulator, IP accumulation; HEK293; 30 µM, in the dark, together with: low-dose orthosteric agonist): 89%
N#CC(=Cc1cccc(O)c1)C(=O)NCc1ccc(Cl)cc1  labelling (UCHL1; covalent, intact protein LC-MS; 12.5 µM): 24.4%
COc1cccc2c(Nc3ccc4[nH]c(C(=O)N/N=C/c5ccc(SC)cc5)cc4c3)cc(C)nc12  activation (Nuclear receptor subfamily 1 group I member 3 (Homo sapiens, UniProt Q14994); reporter gene, Gal4 hybrid reporter; 3 µM; relative to: vehicle): 1.08 fold
Oc1ccc([C@@H]2c3c(O)cc(O)cc3[C@@H]3c4c(cc(O)c5c4[C@@H]2[C@H](c2ccc(O)cc2)[C@H]5c2cc(O)cc4c2[C@@H](c2cc(O)cc(O)c2)[C@H](c2ccc(O)cc2)O4)O[C@H]3c2ccc(O)cc2)cc1  Vmax (Alpha-amylase 1A (AMY1A, Homo sapiens, UniProt P0DUB6); enzyme activity; 5 µM): 659 ± 96 µmol/min
C[C@@H](O)[C@H](N)C(=O)O  Km (ilvA (Escherichia coli, UniProt P04968); 2-ketobutyrate formation, substrate, steady-state kinetics): 7.3 mM
Cc1cc(Oc2ncccc2CN2CCN(c3c(C)cccc3C)CC2)ccc1-c1c(C)c(=O)[nH]c(=O)n1C  selectivity ratio (ADRA2C; binding, radioligand binding; together with: [3H]rauwolscine; relative to: Ki alpha2B over Ki alpha2C): 5
CN(C)CCC=C1c2ccccc2C=Cc2ccccc21  inhibition (Voltage-dependent P/Q-type calcium channel subunit alpha-1A; ion current, antagonist; HEK293; 3 µM): 28%
CC[C@@H]1[C@H](F)C(=O)N[C@@H]1COc1nccc2cc(C(N)=O)c(OC)cc12  inhibition (EPHA7 (Homo sapiens, UniProt Q15375); ATP probe binding, KiNativ profiling, item: activation loop probe site; THP-1 cell lysate; 0.2 mM): 20.8%
Nc1ncnc2c1ncn2[C@@H]1O[C@H](COP(=O)(O)OP(=O)(O)OP(=O)(O)O)[C@@H](O)[C@H]1O  Km (CKMT1A (Homo sapiens, UniProt P12532, H99K); substrate, ADP-Glo luminescence; pH 8.5, forward reaction, H61K mutant, together with: second substrate in excess): 0.4 ± 0.1 mM
Cc1cc(Oc2ncccc2CN2CCN(c3ccccn3)CC2)ccc1-c1c(C)c(=O)[nH]c(=O)n1C  selectivity ratio (ADRA2C; binding, radioligand binding; together with: [3H]rauwolscine; relative to: Ki alpha2A over Ki alpha2C): 4
O=C(NC1CCC1)c1ccc2nc(-c3cccc(NS(=O)(=O)NCCN4CCCCC4)c3)cn2c1  remaining activity (PIK3CA (Homo sapiens, UniProt P42336, C420R); enzyme activity; 10 µM): 100%
CC(=O)N1CCC[C@H]1C(=O)NCCNC(=O)Cn1[nH]c(=O)c2ccccc2c1=O  ligand efficiency (TNKS (Homo sapiens, UniProt O95271); enzyme activity, inhibitor): 0.25
O=c1nc(SCc2cc(F)cc(C(F)(F)F)c2)nc(SCc2ccc3nc(Cl)ccc3c2)[nH]1  ATP hydrolysis rate (TOP2A (Homo sapiens, UniProt P11388); ATPase activity; 7.8 µM, together with: ATP 0.075 mM): 0.695 µM/min and 0.736 µM/min
Oc1ccccc1-c1n[nH]cc1-c1ccnc2ccccc12  log2 fold change (Serine/threonine-protein kinase HSL1 (HSL1, Candida albicans, UniProt Q5AG71); kinase binding, MIB/MS competition; Candida albicans lysate; 1 µM; relative to: DMSO, negative = stronger binding): 0.1
Cc1ccc(-n2c(C)cc(C(=O)CCl)c2C)cc1C  labelling (UCHL1; covalent, intact protein LC-MS; 12.5 µM): 24.2%
C=CC(=O)N1CCC(COCC(=O)N2CCN(c3nc(-c4cnc(N)nc4C(F)F)nc(N4CCOC[C@@H]4C)n3)CC2)CC1  remaining binding (NEK10 (Homo sapiens, UniProt Q6ZWH5); KINOMEscan; 1 µM): 100%
